Measured values collected from several papers.
Each numbered part is a random draw from the data of one study; scales do not carry over between parts. Values joined by “and” are separate records of one study, mostly repeats; a detail may differ.
Chain of UniProt P42338 (whole entry, looked up): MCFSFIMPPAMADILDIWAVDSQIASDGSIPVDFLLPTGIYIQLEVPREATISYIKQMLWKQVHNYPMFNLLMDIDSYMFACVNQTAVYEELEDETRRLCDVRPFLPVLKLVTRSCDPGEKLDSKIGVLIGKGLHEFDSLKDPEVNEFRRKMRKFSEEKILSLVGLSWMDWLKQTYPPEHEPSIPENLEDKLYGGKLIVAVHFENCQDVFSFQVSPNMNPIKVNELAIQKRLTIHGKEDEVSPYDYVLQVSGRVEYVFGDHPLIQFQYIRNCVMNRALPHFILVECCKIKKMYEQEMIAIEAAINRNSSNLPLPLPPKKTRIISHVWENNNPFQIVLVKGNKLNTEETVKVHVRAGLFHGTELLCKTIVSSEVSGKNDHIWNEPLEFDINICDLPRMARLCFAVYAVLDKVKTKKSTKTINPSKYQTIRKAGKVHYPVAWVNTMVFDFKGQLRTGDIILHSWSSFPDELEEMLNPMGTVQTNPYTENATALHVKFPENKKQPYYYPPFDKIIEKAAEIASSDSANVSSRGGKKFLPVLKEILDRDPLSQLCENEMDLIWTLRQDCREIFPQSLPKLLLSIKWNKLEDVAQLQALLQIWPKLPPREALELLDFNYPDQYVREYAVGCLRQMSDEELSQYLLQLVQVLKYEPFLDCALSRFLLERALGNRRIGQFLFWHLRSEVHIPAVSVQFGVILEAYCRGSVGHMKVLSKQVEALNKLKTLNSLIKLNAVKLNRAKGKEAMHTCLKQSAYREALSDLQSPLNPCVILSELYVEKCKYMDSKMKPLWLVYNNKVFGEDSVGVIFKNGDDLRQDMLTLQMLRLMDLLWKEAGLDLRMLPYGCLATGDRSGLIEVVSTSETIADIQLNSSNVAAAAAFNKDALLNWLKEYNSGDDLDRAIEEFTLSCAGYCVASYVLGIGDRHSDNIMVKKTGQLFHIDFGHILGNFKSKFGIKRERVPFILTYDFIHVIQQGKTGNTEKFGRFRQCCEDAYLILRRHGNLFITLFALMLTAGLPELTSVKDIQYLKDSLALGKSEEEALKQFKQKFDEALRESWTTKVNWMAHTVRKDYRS
Chain of UniProt Q92918 (whole entry, looked up): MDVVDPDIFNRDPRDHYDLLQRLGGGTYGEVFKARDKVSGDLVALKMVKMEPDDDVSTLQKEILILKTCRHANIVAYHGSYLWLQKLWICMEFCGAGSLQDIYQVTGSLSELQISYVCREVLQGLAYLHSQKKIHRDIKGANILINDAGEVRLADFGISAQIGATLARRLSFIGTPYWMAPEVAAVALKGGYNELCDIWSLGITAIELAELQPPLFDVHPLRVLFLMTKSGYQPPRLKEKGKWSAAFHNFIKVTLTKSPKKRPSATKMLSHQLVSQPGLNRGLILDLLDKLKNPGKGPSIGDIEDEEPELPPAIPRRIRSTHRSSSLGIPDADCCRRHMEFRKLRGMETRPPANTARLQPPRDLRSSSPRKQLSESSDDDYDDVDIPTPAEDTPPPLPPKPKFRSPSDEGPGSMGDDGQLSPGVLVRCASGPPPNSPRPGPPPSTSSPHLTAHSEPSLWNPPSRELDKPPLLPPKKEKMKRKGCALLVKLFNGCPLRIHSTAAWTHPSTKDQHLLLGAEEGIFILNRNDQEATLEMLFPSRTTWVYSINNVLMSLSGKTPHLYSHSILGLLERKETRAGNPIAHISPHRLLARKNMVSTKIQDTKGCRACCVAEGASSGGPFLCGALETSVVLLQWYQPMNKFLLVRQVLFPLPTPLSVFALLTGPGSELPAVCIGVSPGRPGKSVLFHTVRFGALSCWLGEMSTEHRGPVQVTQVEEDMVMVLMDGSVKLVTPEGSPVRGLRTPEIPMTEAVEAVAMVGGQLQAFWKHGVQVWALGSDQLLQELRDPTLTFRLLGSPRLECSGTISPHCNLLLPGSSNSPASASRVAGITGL
Chain of UniProt P35916 (whole entry, looked up): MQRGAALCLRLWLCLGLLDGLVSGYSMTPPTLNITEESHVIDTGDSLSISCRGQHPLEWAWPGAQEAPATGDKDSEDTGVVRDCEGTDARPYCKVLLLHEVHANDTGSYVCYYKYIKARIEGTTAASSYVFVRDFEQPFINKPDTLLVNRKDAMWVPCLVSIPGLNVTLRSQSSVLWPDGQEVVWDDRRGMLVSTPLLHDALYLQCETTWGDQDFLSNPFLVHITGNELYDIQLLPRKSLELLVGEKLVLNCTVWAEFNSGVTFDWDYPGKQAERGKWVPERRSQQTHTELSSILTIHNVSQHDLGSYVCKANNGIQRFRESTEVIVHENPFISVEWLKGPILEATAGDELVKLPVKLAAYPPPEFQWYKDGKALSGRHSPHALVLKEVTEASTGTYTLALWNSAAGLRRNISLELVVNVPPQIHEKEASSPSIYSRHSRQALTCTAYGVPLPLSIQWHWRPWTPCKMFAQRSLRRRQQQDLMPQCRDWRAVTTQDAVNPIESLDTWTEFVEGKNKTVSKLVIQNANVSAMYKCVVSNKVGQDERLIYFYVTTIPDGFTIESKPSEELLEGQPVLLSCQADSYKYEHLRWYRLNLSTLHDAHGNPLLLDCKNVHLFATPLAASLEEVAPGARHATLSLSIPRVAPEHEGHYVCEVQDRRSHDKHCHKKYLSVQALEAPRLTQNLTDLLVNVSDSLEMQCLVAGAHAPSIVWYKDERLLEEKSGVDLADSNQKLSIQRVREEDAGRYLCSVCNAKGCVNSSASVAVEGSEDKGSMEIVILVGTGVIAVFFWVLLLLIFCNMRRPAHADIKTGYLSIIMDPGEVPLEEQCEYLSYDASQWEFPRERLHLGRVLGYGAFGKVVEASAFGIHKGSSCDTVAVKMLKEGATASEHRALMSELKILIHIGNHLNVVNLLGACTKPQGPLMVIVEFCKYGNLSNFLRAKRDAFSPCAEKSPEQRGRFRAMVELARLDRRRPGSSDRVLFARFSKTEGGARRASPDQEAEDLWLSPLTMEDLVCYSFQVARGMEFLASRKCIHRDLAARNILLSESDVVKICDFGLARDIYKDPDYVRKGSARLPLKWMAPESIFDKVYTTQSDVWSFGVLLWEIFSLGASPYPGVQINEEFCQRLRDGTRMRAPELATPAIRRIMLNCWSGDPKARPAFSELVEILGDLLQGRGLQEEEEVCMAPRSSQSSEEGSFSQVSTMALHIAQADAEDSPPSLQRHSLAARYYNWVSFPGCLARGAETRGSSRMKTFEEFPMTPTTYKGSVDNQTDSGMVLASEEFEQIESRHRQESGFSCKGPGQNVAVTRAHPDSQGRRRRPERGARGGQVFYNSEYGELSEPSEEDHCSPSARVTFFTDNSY
Chain of UniProt O15197 (whole entry, looked up): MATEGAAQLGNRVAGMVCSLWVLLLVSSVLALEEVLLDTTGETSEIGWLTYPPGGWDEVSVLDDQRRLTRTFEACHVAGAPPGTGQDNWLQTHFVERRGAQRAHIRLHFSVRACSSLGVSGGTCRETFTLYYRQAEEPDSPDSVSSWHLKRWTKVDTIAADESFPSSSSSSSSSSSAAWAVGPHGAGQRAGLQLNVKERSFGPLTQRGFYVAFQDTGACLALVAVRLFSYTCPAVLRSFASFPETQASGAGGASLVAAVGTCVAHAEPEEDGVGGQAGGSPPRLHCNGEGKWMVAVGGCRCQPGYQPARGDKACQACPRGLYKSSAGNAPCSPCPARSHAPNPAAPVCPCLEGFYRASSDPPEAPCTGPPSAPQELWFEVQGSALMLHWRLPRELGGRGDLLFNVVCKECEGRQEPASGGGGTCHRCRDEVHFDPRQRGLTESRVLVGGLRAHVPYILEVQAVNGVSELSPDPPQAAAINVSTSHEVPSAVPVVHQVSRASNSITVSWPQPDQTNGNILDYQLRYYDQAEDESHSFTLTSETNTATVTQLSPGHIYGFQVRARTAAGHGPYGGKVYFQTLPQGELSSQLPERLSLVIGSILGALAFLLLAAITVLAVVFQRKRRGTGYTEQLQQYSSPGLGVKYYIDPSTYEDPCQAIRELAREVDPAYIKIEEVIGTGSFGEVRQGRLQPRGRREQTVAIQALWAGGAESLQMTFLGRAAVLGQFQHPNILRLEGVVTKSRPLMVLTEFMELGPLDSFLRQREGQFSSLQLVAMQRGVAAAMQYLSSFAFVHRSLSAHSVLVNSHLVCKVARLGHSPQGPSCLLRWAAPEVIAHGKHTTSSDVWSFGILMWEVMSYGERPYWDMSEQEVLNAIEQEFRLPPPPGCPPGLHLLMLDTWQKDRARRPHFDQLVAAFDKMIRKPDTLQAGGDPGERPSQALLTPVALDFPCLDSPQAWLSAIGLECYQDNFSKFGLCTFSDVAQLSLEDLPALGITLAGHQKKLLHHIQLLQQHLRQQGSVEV

Study 1
Target: TAR DNA-binding protein 43, full length, His tag (TARDBP, Homo sapiens, UniProt Q13148, residues 1-414)
Technique: RNA Bind-n-Seq
Molecule type: RNA
Sample: in vitro
Tested at: 20 nM
Notes: 6-mer, flanks averaged, single round
Together with: 150 mM LiCl
Reference: input library
Direction: higher = stronger binding
`CGUUCG` — result for “6-mer enrichment (R)”: 0.885.
Under “6-mer enrichment (R)”, `CUAUUG` is recorded as 0.949.
`ACACCU` — result for “6-mer enrichment (R)”: 0.951.
`GUCCUA`: “6-mer enrichment (R)” 0.873.
`GGUUAU`: “6-mer enrichment (R)” 1.07.
Under “6-mer enrichment (R)”, `CACCGG` is recorded as 0.882.
`UUUGAG` — result for “6-mer enrichment (R)”: 1.19.
Under “6-mer enrichment (R)”, `UCACGG` is recorded as 0.842.

Study 2
Target: Serine/threonine-protein kinase PLK2 (PLK2, Homo sapiens, UniProt Q9NYY3)
Chain of UniProt Q9NYY3 (whole entry, looked up): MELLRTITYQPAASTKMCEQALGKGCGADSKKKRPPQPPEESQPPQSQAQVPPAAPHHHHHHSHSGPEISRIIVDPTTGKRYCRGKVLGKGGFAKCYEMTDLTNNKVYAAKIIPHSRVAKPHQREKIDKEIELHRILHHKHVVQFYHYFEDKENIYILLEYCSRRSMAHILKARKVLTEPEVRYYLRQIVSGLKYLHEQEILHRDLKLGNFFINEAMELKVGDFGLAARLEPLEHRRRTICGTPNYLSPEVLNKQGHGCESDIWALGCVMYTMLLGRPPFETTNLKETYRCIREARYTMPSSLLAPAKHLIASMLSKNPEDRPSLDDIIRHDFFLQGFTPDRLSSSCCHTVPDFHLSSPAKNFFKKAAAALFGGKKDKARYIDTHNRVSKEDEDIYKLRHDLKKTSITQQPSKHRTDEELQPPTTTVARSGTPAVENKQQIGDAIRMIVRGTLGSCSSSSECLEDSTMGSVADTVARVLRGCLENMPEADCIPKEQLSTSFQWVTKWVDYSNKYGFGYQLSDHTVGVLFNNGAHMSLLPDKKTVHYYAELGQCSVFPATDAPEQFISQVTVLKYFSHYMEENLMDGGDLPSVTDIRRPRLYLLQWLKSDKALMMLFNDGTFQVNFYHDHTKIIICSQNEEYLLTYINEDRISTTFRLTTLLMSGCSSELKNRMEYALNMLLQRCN
Effect on: enzyme activity
Mode: inhibitor
Tested at: 0.5 µM
Reference: control
With `O=C1NC(=O)C(c2cn(CCCn3ccnc3)c3ccccc23)=C1Nc1ccccc1` the remaining activity was 102%.
`Nc1ccc2ncnc(NCCc3ccc(Oc4ccccc4)cc3)c2c1` gave a remaining activity of 102%.
For `OCC(O)CCON=C1C(c2c(O)[nH]c3ccccc23)=Nc2ccccc21` (centres unmarked), the remaining activity was 105%.
The remaining activity of `Cn1sc(=O)n(Cc2ccccc2)c1=O` is reported as 106%.
The remaining activity of `Nc1[nH]nc2nc3ccccc3nc12` is reported as 101%.
For `O=C1NC(=O)C(c2cn(CCCO)c3ncccc23)=C1c1cnccn1`, the remaining activity was 104%.
The remaining activity of `O=C(O)c1ccc2c3c1cccc3c(=O)n1c3ccccc3nc21` is reported as 97%.
`CCOC(=O)c1c(C)[nH]c(/C=C2\C(=O)Nc3ccccc32)c1C` gave a remaining activity of 102%.
With `Cc1ccc(Nc2nccc(N(C)c3ccc4c(C)n(C)nc4c3)n2)cc1S(N)(=O)=O` the remaining activity was 101%.
For `O=S(=O)(c1cccc2cnccc12)N1CCCNCC1`, the remaining activity was 100%.
With `COc1cc2ncnc(Nc3ccc(Oc4ccccc4)cc3)c2cc1OC` the remaining activity was 104%.
`C#Cc1cccc(Nc2ncnc3cc(OCCOC)c(OCCOC)cc23)c1` has a remaining activity of 104%.
`COc1ccc(C(=O)Nc2sc3c(c2C(N)=O)CCCC3)cc1OC` gave a remaining activity of 106%.
`CO[C@H]1C[C@@H]2CC[C@@H](C)[C@@](O)(O2)C(=O)C(=O)N2CCCC[C@H]2C(=O)O[C@H]([C@H](C)C[C@@H]2CC[C@@H](O)[C@H](OC)C2)CC(=O)[C@H](C)/C=C(\C)[C@@H](O)[C@@H](OC)C(=O)[C@H](C)C[C@H](C)/C=C/C=C/C=C/1C` has a remaining activity of 105%.
The remaining activity of `O=c1c2ccccc2[nH]c(=S)n1CCN1CCC(=C(c2ccc(F)cc2)c2ccc(F)cc2)CC1` is reported as 104%.

Study 3
Structure (SMILES): NS(=O)(=O)c1cc(NC(=O)C2(c3ccccc3Cl)CC2)ccc1Oc1cccc(Cl)c1
Effect on: cell-free assay
Technique: competition with immobilised ligand
Tested at: 1 µM
The remaining binding was 70% (SYK (Homo sapiens, UniProt P43405)).
For PIK3CB (Homo sapiens, UniProt P42338): remaining binding read 100%.
The remaining binding was 81% (EPHB6 (Homo sapiens, UniProt O15197)).
It gave 66% for remaining binding (MAP4K1 (Homo sapiens, UniProt Q92918)).
PTK2 (Homo sapiens, UniProt Q05397) — remaining binding: 87%.
For EGFR (Homo sapiens, UniProt P00533, G719C): remaining binding read 90%.
PIP5K1A (Homo sapiens, UniProt Q99755) — remaining binding: 100%.
STK17B (Homo sapiens, UniProt O94768) — remaining binding: 97%.
It gave 85% for remaining binding (CSF1R (Homo sapiens, UniProt P07333)).
For FLT4 (Homo sapiens, UniProt P35916): remaining binding read 67%.
It gave 95% for remaining binding (BUB1 (Homo sapiens, UniProt O43683)).

Further values, each from its own experiment
With `CN(N=O)C(=O)N[C@@H]1[C@@H](O)[C@H](O)[C@@H](CO)O[C@@H]1O` the blood glucose was 527 mg/dL and 590 mg/dL and 408 mg/dL and 534 mg/dL and 455 mg/dL (mice, STZ diabetic neuropathy; dose not given, 14 days after STZ).

Excerpt of the above (study 2):
`CO[C@H]1C[C@@H]2CC[C@@H](C)[C@@](O)(O2)C(=O)C(=O)N2CCCC[C@H]2C(=O)O[C@H]([C@H](C)C[C@@H]2CC[C@@H](O)[C@H](OC)C2)CC(=O)[C@H](C)/C=C(\C)[C@@H](O)[C@@H](OC)C(=O)[C@H](C)C[C@H](C)/C=C/C=C/C=C/1C` has a remaining activity of 105%.
The remaining activity of `O=c1c2ccccc2[nH]c(=S)n1CCN1CCC(=C(c2ccc(F)cc2)c2ccc(F)cc2)CC1` is reported as 104%.
